Published values from different studies.
Lines come from different studies, so protocols differ. Numbers after ± are the reported error. ≈ marks a conversion by molar mass, not a printed value.
UniProt P08684, sequence (whole entry, unmodified, looked up): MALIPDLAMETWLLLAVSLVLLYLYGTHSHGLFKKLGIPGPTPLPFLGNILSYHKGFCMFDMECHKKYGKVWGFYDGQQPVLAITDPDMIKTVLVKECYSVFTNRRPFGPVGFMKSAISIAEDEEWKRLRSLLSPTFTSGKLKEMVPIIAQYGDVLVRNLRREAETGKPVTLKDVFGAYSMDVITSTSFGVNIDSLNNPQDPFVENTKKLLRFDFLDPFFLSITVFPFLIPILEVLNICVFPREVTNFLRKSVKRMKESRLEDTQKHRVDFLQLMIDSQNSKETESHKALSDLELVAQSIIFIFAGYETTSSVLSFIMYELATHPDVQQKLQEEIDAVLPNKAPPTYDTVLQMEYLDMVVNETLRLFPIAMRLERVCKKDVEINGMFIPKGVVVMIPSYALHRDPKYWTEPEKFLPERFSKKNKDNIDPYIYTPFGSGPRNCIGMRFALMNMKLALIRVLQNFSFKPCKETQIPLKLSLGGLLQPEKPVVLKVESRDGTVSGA
UniProt Q03164, sequence (whole entry, looked up): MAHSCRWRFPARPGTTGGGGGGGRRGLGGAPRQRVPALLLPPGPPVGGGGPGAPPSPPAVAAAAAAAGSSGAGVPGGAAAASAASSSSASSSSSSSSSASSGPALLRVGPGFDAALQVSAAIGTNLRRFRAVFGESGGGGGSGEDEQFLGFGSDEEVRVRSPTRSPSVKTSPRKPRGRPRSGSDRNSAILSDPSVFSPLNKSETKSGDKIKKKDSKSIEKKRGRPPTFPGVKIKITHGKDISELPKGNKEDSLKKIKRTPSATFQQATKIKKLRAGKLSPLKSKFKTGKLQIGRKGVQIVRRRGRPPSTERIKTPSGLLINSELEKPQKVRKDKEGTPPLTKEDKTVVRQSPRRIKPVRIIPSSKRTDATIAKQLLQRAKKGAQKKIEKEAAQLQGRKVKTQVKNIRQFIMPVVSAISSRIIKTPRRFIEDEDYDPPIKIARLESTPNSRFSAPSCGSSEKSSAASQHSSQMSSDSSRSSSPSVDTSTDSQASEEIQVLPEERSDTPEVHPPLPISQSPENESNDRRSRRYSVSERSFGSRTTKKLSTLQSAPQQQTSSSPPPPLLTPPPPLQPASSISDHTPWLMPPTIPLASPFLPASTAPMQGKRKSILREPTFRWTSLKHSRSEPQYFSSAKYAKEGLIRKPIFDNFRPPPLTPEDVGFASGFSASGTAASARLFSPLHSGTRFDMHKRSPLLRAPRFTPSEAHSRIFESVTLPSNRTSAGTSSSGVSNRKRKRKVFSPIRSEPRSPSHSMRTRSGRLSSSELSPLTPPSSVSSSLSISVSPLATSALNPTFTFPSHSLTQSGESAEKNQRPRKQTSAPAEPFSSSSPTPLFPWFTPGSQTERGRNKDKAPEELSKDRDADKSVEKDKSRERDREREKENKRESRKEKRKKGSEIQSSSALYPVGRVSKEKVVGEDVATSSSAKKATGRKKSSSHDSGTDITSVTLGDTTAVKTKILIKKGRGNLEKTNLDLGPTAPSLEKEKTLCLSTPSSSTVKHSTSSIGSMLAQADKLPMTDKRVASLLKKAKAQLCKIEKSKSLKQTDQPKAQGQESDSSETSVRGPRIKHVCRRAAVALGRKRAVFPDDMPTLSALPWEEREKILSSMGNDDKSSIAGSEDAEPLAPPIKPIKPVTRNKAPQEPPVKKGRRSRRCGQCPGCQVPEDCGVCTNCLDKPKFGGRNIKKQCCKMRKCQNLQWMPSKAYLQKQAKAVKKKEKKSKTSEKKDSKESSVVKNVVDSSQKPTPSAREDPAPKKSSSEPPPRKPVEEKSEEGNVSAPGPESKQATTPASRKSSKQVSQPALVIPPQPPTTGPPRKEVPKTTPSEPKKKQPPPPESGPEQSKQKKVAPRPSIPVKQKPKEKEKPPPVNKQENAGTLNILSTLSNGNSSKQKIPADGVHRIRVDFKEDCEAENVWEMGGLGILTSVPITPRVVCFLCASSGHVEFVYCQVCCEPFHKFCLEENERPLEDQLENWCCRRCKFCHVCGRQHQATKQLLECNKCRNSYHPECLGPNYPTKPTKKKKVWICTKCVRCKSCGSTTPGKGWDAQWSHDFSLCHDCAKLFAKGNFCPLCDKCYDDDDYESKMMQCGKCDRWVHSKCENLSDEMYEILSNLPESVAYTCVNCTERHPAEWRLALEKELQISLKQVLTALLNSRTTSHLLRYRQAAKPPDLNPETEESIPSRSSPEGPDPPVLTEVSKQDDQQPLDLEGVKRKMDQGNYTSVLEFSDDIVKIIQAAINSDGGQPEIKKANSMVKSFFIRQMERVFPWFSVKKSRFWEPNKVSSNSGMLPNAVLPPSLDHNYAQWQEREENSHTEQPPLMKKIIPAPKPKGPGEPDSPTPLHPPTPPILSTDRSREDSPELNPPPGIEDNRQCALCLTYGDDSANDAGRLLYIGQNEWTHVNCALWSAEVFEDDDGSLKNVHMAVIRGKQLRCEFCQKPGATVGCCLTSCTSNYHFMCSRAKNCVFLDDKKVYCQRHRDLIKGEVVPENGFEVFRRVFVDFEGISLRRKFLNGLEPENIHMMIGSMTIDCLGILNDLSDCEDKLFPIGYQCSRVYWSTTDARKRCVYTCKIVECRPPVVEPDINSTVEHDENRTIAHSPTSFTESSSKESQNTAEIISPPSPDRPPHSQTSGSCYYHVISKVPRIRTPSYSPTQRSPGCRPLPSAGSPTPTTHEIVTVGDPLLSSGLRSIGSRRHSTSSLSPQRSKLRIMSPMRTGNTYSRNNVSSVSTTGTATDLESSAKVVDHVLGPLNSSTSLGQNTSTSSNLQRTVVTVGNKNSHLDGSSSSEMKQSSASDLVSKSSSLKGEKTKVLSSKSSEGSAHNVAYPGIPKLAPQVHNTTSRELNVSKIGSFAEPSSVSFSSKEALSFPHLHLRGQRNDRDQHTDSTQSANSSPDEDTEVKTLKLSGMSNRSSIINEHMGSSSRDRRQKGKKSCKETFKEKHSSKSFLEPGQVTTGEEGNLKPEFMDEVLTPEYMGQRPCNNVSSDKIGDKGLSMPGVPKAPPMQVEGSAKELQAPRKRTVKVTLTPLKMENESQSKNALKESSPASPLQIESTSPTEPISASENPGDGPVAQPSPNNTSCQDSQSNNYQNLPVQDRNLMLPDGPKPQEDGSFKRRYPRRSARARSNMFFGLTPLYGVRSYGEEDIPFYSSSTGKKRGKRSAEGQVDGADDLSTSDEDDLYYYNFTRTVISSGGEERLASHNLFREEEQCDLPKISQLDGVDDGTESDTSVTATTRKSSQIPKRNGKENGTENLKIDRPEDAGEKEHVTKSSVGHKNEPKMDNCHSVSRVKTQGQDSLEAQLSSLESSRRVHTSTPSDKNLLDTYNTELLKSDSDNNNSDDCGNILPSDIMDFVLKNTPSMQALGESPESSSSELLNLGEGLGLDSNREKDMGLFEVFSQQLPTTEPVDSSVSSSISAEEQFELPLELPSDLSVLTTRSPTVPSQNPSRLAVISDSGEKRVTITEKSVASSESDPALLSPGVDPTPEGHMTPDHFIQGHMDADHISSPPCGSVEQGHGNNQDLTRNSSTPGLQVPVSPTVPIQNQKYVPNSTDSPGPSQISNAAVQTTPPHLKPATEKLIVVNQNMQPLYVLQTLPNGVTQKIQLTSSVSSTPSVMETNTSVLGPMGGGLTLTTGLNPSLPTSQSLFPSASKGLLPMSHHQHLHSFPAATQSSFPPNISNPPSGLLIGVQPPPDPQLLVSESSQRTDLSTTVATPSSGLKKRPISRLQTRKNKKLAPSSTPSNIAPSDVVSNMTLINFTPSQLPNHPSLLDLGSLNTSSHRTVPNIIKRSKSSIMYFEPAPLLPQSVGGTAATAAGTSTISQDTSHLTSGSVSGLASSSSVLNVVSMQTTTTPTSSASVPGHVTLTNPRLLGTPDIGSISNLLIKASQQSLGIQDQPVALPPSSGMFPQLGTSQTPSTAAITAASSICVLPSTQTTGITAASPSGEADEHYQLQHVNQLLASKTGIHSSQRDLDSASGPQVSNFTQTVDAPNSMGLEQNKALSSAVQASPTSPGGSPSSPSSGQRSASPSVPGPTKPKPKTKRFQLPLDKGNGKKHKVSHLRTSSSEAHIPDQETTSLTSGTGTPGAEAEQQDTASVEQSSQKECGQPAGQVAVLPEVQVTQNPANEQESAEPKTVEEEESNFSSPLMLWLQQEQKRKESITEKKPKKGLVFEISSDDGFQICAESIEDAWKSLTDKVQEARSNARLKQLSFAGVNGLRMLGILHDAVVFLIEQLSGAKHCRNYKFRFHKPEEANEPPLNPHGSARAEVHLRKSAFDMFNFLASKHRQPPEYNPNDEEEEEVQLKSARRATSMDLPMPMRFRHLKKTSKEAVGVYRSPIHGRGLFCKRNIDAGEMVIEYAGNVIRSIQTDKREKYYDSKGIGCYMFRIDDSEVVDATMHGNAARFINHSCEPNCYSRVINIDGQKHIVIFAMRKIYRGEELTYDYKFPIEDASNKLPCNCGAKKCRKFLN
UniProt P22309, sequence (whole entry, looked up): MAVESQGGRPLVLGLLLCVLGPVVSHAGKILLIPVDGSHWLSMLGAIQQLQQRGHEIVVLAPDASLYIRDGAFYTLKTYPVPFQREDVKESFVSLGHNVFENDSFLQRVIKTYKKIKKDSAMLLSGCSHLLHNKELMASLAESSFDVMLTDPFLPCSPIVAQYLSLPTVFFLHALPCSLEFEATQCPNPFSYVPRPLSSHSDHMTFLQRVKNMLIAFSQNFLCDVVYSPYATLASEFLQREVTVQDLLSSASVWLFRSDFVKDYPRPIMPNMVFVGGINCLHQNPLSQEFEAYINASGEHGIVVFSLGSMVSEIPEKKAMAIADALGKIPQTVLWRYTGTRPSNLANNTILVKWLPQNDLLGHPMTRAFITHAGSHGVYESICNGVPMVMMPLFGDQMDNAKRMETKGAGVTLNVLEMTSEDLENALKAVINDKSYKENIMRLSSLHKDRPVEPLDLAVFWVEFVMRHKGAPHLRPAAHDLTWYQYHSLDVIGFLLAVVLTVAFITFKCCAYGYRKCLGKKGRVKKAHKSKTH

| Compound | target or system | assay | system | setting | scale | quantity | value |
| --- | --- | --- | --- | --- | --- | --- | --- |
| N=C(N)NCCC[C@@H]1NC(=O)[C@H](Cc2c[nH]c3ccccc23)NC(=O)[C@@H](CC2CCCCC2)NC(=O)[C@@H]2CCCN2C(=O)[C@@H](NC(=O)CCc2ccccc2)CCCNC1=O |  |  | C57BL/6J mice, plasma | intraperitoneal, 1 mg/kg, two-compartment model |  | elimination rate constant | 0.00114 s⁻¹ |
| CC(C)=CCCC(C)=CCc1cc(-c2coc3cc(OC4OC(C(=O)O)C(O)C(O)C4O)ccc3c2=O)ccc1O (stereo not shown) |  | glucuronidation, substrate | rabbit liver microsomes |  |  | substrate inhibition Ki | 11.1 ± 1.67 µM |
| O=C(C[C@H](Cc1ccc(O)cc1)n1nncc1CNS(=O)(=O)c1ccc(-c2ccccc2)s1)NO | ERAP2 (Homo sapiens, UniProt Q6P179) | inhibitor |  |  |  | lipophilic ligand efficiency | 3.08 |
| CCCC[C@H](NC(=O)CNC(=O)CNC(=O)CN1CCN(CC(=O)O)CCN(CC(=O)O)CCN(CC(=O)O)CC1)C(=O)N[C@H]1CC(=O)NCCCC[C@@H](C(N)=O)NC(=O)[C@H](Cc2c[nH]c3ccccc23)NC(=O)[C@H](CCCNC(=N)N)NC(=O)[C@@H](Cc2ccccc2)NC(=O)[C@H](Cc2c[nH]cn2)NC1=O [lutetium-177 labelled] |  |  | C57 mouse, female, heart | intravenous, 0.037 MBq, 24 h |  | tissue uptake | 0.17 ± 0.13 %ID/g |
| NC(=O)N/N=C/c1ccccn1 | Cu2+ complex | potentiometric titration |  | 25 °C |  | log stability constant | 16.7 |
| COc1cc(CCC(C)=O)ccc1O | mouse mAb 1-F12 | antibody binding, indirect competitive ELISA |  | added: coating antigen 3-OVA |  | IC50 | > 4 µg/mL |
| Cn1c(=O)oc2ccc(-c3ccc(CC(C#N)NC(=O)C4CNCCCO4)c(F)c3)cc21 (stereo not shown) |  |  | human | oral, 40 mg once daily, TEAE, multiple ascending dose |  | chest pain incidence | 0% |
| O=C([O-])CN1CCN(CC(=O)[O-])CCN(Cc2cccc(C(=O)[O-])n2)CC1.[Cu+2] | copper(II/I) couple | cyclic voltammetry |  | pH 5, 25 °C |  | half-wave potential | -0.685 V vs Ag/AgCl |
| N=C(N)NCCC[C@@H]1NC(=O)[C@H](CCCCNC(=O)CC[C@H](NC(=O)CC[C@H](NC(=O)CN2CCN(CC(=O)O)CCN(CC(=O)O)CCN(CC(=O)O)CC2)C(=O)N[C@@H](CCC(=O)NCCCC[C@@H]2NC(=O)[C@@H](Cc3ccccc3)NC(=O)[C@H](CC(=O)O)NC(=O)CNC(=O)[C@H](CCCNC(=N)N)NC2=O)C(=O)NCCCC[C@@H]2NC(=O)[C@@H](Cc3ccccc3)NC(=O)[C@H](CC(=O)O)NC(=O)CNC(=O)[C@H](CCCNC(=N)N)NC2=O)C(=O)NCCCC[C@@H]2NC(=O)[C@@H](Cc3ccccc3)NC(=O)[C@H](CC(=O)O)NC(=O)CNC(=O)[C@H](CCCNC(=N)N)NC2=O)NC(=O)[C@@H](Cc2ccccc2)NC(=O)[C@H](CC(=O)O)NC(=O)CNC1=O [indium-111 labelled] |  |  | female athymic nu/nu mice, eyes | intravenous, 0.5 h |  | tissue uptake | 1.56 ± 0.15 %ID/g |
| O=C(O)[C@@H]1C[C@@H](O)CN1C(=O)[C@@H]1CCCN1 | iron(III) ion | complex formation, Van't Hoff plot | aqueous 0.15 M NaCl | MAH−1 complex species |  | ΔH | 56.8 kcal/mol |
| N=C(N)NCCC[C@@H]1NC(=O)[C@H](CCCCNC(=O)CNC(=O)CNC(=O)CNC(=O)CC[C@H](NC(=O)CNC(=O)CNC(=O)CNC(=O)CN2CCN(CC(=O)O)CCN(CC(=O)O)CCN(CC(=O)O)CC2)C(=O)NCC(=O)NCC(=O)NCC(=O)NCCCC[C@@H]2NC(=O)[C@@H](Cc3ccccc3)NC(=O)[C@H](CC(=O)O)NC(=O)CNC(=O)[C@H](CCCNC(=N)N)NC2=O)NC(=O)[C@@H](Cc2ccccc2)NC(=O)[C@H](CC(=O)O)NC(=O)CNC1=O [indium-111 labelled] |  |  | female athymic nu/nu mice, intestine | intravenous, 4 h |  | tissue uptake | 5.09 ± 1.75 %ID/g |
| NC(=S)N/N=C/c1ccccc1O | Mn2+ complex | potentiometric titration |  | 25 °C |  | log stability constant | 15.2 |
| [64Cu+2].c1ccc(CNCc2ccc(CN3CCCN4CCNCCCN(CC4)CC3)cc2)nc1 | CXCR4 |  | NOD/SCID mouse, U87 and U87-stb-CXCR4 xenografts, stomach | iv, 240 min, ex vivo |  | tissue uptake | 2.32 ± 0.35 %ID/g |
| C=CC(=O)Nc1cc(Nc2nccc(-c3cn(C)c4ccccc34)n2)c(OCC(F)(F)F)nc1N(C)CCN(C)C | Cytochrome P450 3A4 (CYP3A4, Homo sapiens, UniProt P08684) | enzyme activity, inhibitor | human, liver microsomes | 1 µM, testosterone probe |  | activity vs control | 101% |
| COc1cccc2c1C(=O)c1c(O)c3c(c(O)c1C2=O)CC(O)(C(=O)CO)CC3OC1CC(NC(=O)C[C@H](N)C(=O)O)C(O)C(C)O1 (stereo partly shown) | P-glycoprotein (MDR1) |  | MDCK-MDR1 | 50 µg/mL, 60 min |  | Papp (B-A) | 0.87 ± 0.073 ×10⁻⁶ cm/s |
| [64Cu+2].c1cnc(CNCc2ccc(CN3CCCN4CCNCCCN(CC4)CC3)cc2)nc1 | CXCR4 |  | NOD/SCID mouse, U87 and U87-stb-CXCR4 xenografts, kidney | iv, 240 min, ex vivo |  | tissue uptake | 28.2 ± 3.07 %ID/g |
| CCCCC/C=C/C(=O)CCc1ccc(O)c(OC)c1 | mouse mAb 1-F12 | antibody binding, indirect competitive ELISA |  | added: coating antigen hapten 5-OVA |  | IC50 | 0.118 µg/mL (≈ 0.426 µM) |
| O=C(O)[C@H]1O[C@@H](O[C@H]2C=Cc3c(cc4ccc5cccc6c7ccccc7c3c4c56)[C@@H]2O)[C@H](O)[C@@H](O)[C@@H]1O | UGT1A1 (Homo sapiens, UniProt P22309) | substrate |  |  |  | Km | 78 ± 19 µM |
| O=c1c(/C=N/NC(=S)N/N=C/c2ccccn2)coc2ccccc12 | Mn2+ complex | potentiometric titration |  | 25 °C |  | log stability constant | 16.7 |
| C[C@H](N)C(=O)N[C@@H](CCCNC(=N)N)C(=O)N[C@H](C(=O)N[C@@H](CCCC[N+](C)(C)C)C(=O)N[C@@H](CCC(N)=O)C(=O)N[C@H](C(=O)N[C@@H](C)C(=O)N[C@@H](CCCNC(=N)N)C(=O)N[C@@H](CCCCN)C(=O)N[C@@H](CO)C(=O)N[C@H](C(=O)NCC(=O)NCC(=O)N[C@@H](CCCCN)C(=O)N[C@@H](C)C(=O)N[C@@H](Cc1ccc(O)cc1)C(=O)O)[C@@H](C)O)[C@@H](C)O)[C@@H](C)O | KMT2A/PPIE, PHD3; CYP33 RRM (Homo sapiens, UniProt Q03164+Q9UNP9) | isothermal titration calorimetry |  | added: CYP33 RRM | baseline: free PHD3 | Kd fold increase | ~5.7 fold |
| O=C1CCN(Cc2ccccc2)CC1C(C[N+](=O)[O-])c1ccccc1 (stereo not shown) |  | tail immersion test | BALB/c mice | ip, 25 mg/kg, 1.5 h |  | tail flick response | 34.1% |
| O=C([O-])c1cccc(CN2CCNCCNCC2)n1.[Cu+2] | copper(II/I) couple | cyclic voltammetry |  | pH 5, 25 °C |  | half-wave potential | -0.555 V vs Ag/AgCl |
| NC(=S)N/N=C/c1ccccn1 | Cu2+ complex | potentiometric titration |  | 25 °C |  | log stability constant | 19.9 |
| COc1ccc(/C=C/c2ccc(-c3ccc(C)cn3)nc2)cc1 | zinc(II) |  | neutral aqueous solution | zinc saturation | baseline: zinc-free ligand | emission wavenumber shift | 2250 cm⁻¹ |
| O=c1c(/C=N/NC(=S)N/N=C/c2cc(Cl)ccc2O)coc2ccccc12 | Cu2+ complex | potentiometric titration |  | 25 °C |  | log stability constant | 20.1 |
| N#CCc1cccc(Cl)c1-c1ccc2[nH][11c](=O)[nH]c2c1 | P-glycoprotein and Bcrp | ex vivo brain uptake | mouse | injection, 5 min, added: tariquidar | baseline: without tariquidar | brain-to-blood ratio increase | 177% |
| CNC(=S)N/N=C/c1ccccn1 | Cu2+ complex | potentiometric titration |  | 25 °C |  | log stability constant | 18.4 |
| COc1ccc2cc(NC(=O)c3cc(-c4ccncc4)nc4ccccc34)ccc2c1 | Cytochrome P450 3A4 (CYP3A4, Homo sapiens, UniProt P08684, S18F) | binding, surface plasmon resonance |  | 10 °C |  | koff slow phase | 0.006 s⁻¹ |
